Results collected from several papers.
Protocols differ between the studies behind these lines. Values joined by “and” are separate records of one study, mostly repeats; a detail may differ. Numbers after ± are the reported error. No end group written: not given here.
B1: O-methyl-Tyr, C-amide; chain Y(Me)ECG-NH2 (N-terminus assumed; SMILES COc1ccc(C[C@H](N)C(=O)N[C@@H](CCC(=O)O)C(=O)N[C@@H](CS)C(=O)NCC(N)=O)cc1)

Molecule	cell line	assay	system	setting	scale	endpoint	result
C=C(C[C@H](N)C(=O)O)C(=O)NCc1ccc([N+](=O)[O-])cc1	MCF7	necrosis	–	24 h	–	EC50	> 316 µM
CN(c1ccc2ncc(-c3ccc4cn[nH]c4c3)n2n1)C1CCOCC1	U-251 overexpressing firefly luciferase	–	–	concentration not given, 6 h	–	luminescence decrease	26 ± 9%
O=[N+]([O-])c1ccc(-n2nc(-c3cccs3)sc2=NN=C2CCCCCC2)cc1	Vero and A549	cytotoxicity	–	–	relative to: CC50 Vero over IC50 A549	selectivity index	124
O=C(c1nc2ccccc2[nH]1)[C@H]1[C@H](c2cccs2)[C@H]2CCCN2[C@@]12c1ccccc1-c1nc3ccccc3nc12	WI-38 lung fibroblasts	cytotoxicity, MTT	medium with 10% FBS	72 h, dose at 100% viability	–	EC100	0.11 ± 0.002 µM
O=[N+]([O-])c1ccc(-n2nc(-c3cccs3)sc2=NN=Cc2ccccc2)cc1	Vero and HepG2	cytotoxicity	–	–	relative to: CC50 Vero over IC50 HepG2	selectivity index	112
Cn1c(C(=O)NCCCc2c[nH]c(N)n2)cc(Br)c1Br	HaCaT	MTT	–	overnight, 10% FBS	–	highest non-toxic concentration	43 µM
O=C(NNc1nc(O)nc(O)n1)c1ccc(Nc2nc(Nc3ccc(C(=O)NNc4nc(O)nc(O)n4)cc3)nc(Nc3ccc(C(=O)NNc4nc(O)nc(O)n4)cc3)n2)cc1	WI-38 cells	cell viability, MTT	–	72 h	–	maximum non-toxic concentration	1.5 nM
CC(=NN=c1sc(-c2cccs2)nn1-c1ccc([N+](=O)[O-])cc1)c1ccc2ccccc2c1	Vero and A549	cytotoxicity	–	–	relative to: CC50 Vero over IC50 A549	selectivity index	93
CC/C(=C(\c1ccccc1)c1ccc(OCCN(C)C)cc1)c1ccccc1	MCF7	necrosis	–	24 h	–	EC50	> 316 µM
O=C(O[C@@H]1Cc2c(O)cc(O)cc2O[C@@H]1c1cc(O)c(O)c(O)c1)c1cc(O)c(O)c(O)c1	Caco-2 TC7	–	PBS	concentration not given, 3 h, pH 5, 37 °C, together with: EGC	relative to: dose	cellular accumulation	1.24 ± 0.1%
B1	HeLa 705	WST-1	–	up to 100 µM, 24 h	relative to: untreated	viability	no effect
CN(C)C(=O)CCSC(SCCC(=O)O)c1cccc(/C=C/c2ccc3ccc(Cl)cc3n2)c1 (centres unmarked)	Jurkat-DNR	cytotoxicity, measured: cell viability	–	–	–	TD50	20.4 µM
CCCCCCCCCCNC(=O)C[C@@H]1NC(=O)[C@H](CCC(N)=O)NC(=O)[C@H](CCCNC(=N)N)NC(=O)[C@H](CCCNC(=N)N)NC(=O)[C@H](CCCNC(=N)N)NC(=O)[C@H](CCCNC(=N)N)NC1=O	HeLa	flow cytometry	–	cytosolic entry	relative to: 1% over 10% FBS	serum effect on uptake	~7 fold
O=C(NO)c1ccc(Cn2cc(Cn3cnc4ccccc4c3=O)nn2)cc1	MRC5	cell growth or viability, MTT	–	48 h	–	IC50	48.5 µM
O=C(c1nc2ccccc2[nH]1)[C@H]1[C@H](c2cccc(F)c2)[C@H]2CCCN2[C@@]12c1ccccc1-c1nc3ccccc3nc12	WI-38 lung fibroblasts	cytotoxicity, MTT	medium with 10% FBS	72 h, dose at 100% viability	–	EC100	0.073 ± 0.007 µM
O=c1c2nc(Br)n([C@@H]3O[C@@H]4COP(=O)(O)O[C@H]4[C@H]3O)c2nc2[nH]c(-c3ccccc3)cn12	washed human platelets	–	–	concentration not given, 20 min, cell membrane permeability	relative to: applied	intracellular level	30% and ~30%
ALWGPDPAAA	HHD and preproinsulin transfected P815	chromium release	peptide	concentration not given, peptide-specific CD8+ T-cell clones	–	cytotoxicity	toxic
